Assay results of several laboratories.
A part holds a random share of what one study measured. Changes are numbered by the printed parent chain.

Sample 1 — method: RNA Bind-n-Seq; molecule type: RNA; medium: in vitro; tested at: 365 nM; relative to: no-protein control; reading: higher = stronger binding
Target: RNA binding protein fox-1 homolog 2, RRM domain, GST-SBP tag (RBFOX2, Homo sapiens, UniProt O43251-10, residues 100-194)
Notes: natural RNA segment, single round, ends assumed
Construct (chain): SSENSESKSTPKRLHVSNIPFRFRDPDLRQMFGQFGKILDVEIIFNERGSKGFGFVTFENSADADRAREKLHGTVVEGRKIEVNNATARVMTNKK
Under “RBNS enrichment (R)”, `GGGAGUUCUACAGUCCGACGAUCAAAGGUAGUGGUCACUGGGUCUCACAUGUUUAGCUUGCCUGCCUGGUAGGACUGGCUUCUGGCAGGGACAGGGCCUAUCCUAAGUACCUUCACCCAGUAUCACAAAGAUGUGGAAUUCUCGGGUGCCAA` is recorded as 0.845.
Under “RBNS enrichment (R)”, `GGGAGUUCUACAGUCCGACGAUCCACACUUUCCUCUUAAGAUCCGUCAUCUCCAGGACAUAAGUCCCCAGCUCCCAACUGUGGCCAUGGCUUAGUUGCAUAAAAGCAGGCAUGACUGGCUGUUAGGAGGUAUGUGGAAUUCUCGGGUGCCAA` is recorded as 0.555.
For `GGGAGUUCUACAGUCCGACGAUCACCACUGGUUUUGUCCUGGUGUUUCCAGCACCAGAAUCCCAGCUUGGUGAGGUUUGAAGUUUCAGUGUGUCUUCUACAAAAUGACAGCCACAUCUACAUUAGCUUGAGAAUGGAAUUCUCGGGUGCCAA`, “RBNS enrichment (R)” read 0.292.
`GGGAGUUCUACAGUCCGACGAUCCCCGUGACUUUCCCUUCCUGCCCAGGAAAGUGAGGGUCGGCUGGCCCCACCUUCCCUGUCCUGAUGCCGACAGCUUAGGGAAGGGCAGUGAACUUGCAUAUGGGGCUUAGUGGAAUUCUCGGGUGCCAA` — result for “RBNS enrichment (R)”: 0.561.
Under “RBNS enrichment (R)”, `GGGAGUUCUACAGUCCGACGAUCCCCCAACUCUGCCCUUCUCCCAUCCAAGAGAAACCAGCAAAAUGAUAAAGAAGCUAACCUGCCAUAGUCAGACUUCAGACUUUCAAGAUUAUUCUAAAUCACCAGAAAAUUGGAAUUCUCGGGUGCCAA` is recorded as 0.344.
`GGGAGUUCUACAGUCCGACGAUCGUAAAGCUAUUGCACUGCGUUGCCCUGGACAAGUCUGAAAUUGGUAUAAAAGACAAGGUGCCCAAGGUCACAAGAACACCUCAUUGCCGACUGAAGCCAGUGUCAGGGCAUGGAAUUCUCGGGUGCCAA`: “RBNS enrichment (R)” 0.448.
`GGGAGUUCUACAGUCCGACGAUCUAGAAGCACAAGACAGUGGAGCCAGCGGAGCCGGGACUAGAGGAGUUGGGCAGUCUCAGUUGAGAAGCUUUAUCGCCUCAAGCCAAGUGGGAGCUCUCUCCCUCAUGCCUUGGAAUUCUCGGGUGCCAA` — result for “RBNS enrichment (R)”: 0.26.
`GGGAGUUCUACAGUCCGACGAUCCACAAAAACAAAAACCAGAACUAGUCAGAUUGAAACCAUACUGUUCCUCCAGAGCGGCGUUAGACAGGAUAGCGGUCCGCACCGGGGGCCGUGUUUAAGGGAGAUUGGAGUGGAAUUCUCGGGUGCCAA` — result for “RBNS enrichment (R)”: 0.786.
For `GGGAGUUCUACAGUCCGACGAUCCCAUGUGCGAGGGAGGUGGUCAGCUGUCAAUAUGCCUUAGUAUGUUUAUAUGAGUUUGUUUUGUUCUAAAAUACCCAAACAGUUCUGGUCAAGCGGGGCUAUGCCCGUCUUGGAAUUCUCGGGUGCCAA`, “RBNS enrichment (R)” read 2.15.
Under “RBNS enrichment (R)”, `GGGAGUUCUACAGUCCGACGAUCUGUGCGUGCCAGCGAAGGCUGCUGUGGGCGUGUGUGUCAAGUGGGCCACGCGUGCAGGGUGUGUGUCCACGAGCGACGAUCGUGGUGGCCCCAGCGGCCUGGGCGUUGGCUGGAAUUCUCGGGUGCCAA` is recorded as 1.13.
For `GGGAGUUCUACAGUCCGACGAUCACAUAUUAGGGAAAAAAUGCAGUUAAGUUGAUCUUUCUUUUAAUUUGGUUUGGUUCAGCAGUCAGCAGUUACAUACAUAACACAACCCGCAAGGACAGUGAAUCCGCUCCUGGAAUUCUCGGGUGCCAA`, “RBNS enrichment (R)” read 0.316.
`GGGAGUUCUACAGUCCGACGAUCGCUGACCCUGCCCUGCCAGCUGAGACUGGGAGACGGAGUGGGCUCUGAUCCCAGGGCUUCCAGGAAAGCUCUGGCUUUGGAGCAGAAGCGGGUUCUAGGACUUAGUGCCCUGGAAUUCUCGGGUGCCAA`: “RBNS enrichment (R)” 0.297.

Sample 2 — target: CEBPD, bZIP domain (human); method: DHFR protein complementation; medium: yeast; relative to: wild-type JUN-FOS pair; reading: higher = stronger binding
Notes: single substitutions, most at no-binding floor
Starting sequence: JUN, bZIP domain (human); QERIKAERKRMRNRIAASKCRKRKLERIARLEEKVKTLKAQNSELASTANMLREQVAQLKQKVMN; partner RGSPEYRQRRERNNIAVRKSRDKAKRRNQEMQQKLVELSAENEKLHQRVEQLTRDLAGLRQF
`M51W` has a binding fitness of -1.42 natural log.
The binding fitness of `I28F` is reported as -1.33 natural log.
The binding fitness of `T48M` is reported as -1.38 natural log.
For `Q41L`, the binding fitness was -1.44 natural log.
For `T37S`, the binding fitness was -1.28 natural log.
The binding fitness of `E32M` is reported as -1.42 natural log.
`E44R` gave a binding fitness of -1.36 natural log.
`L52S` gave a binding fitness of -1.52 natural log.
With `S43Y` the binding fitness was -1.46 natural log.
The binding fitness of `E33P` is reported as -1.46 natural log.
With `E44C` the binding fitness was -1.53 natural log.
`Q55K` has a binding fitness of -1.36 natural log.
The binding fitness of `A40F` is reported as -1.27 natural log.
For `E33M`, the binding fitness was -1.38 natural log.
The binding fitness of `Q41H` is reported as -1.28 natural log.
For `S47K`, the binding fitness was -1.22 natural log.
For `Q41G`, the binding fitness was -1.45 natural log.
For `E32P`, the binding fitness was -1.49 natural log.
For `S47I`, the binding fitness was -1.39 natural log.
For `R30H`, the binding fitness was -1.35 natural log.
`L31E` gave a binding fitness of -1.43 natural log.
`A29H` has a binding fitness of -1.36 natural log.
`K39S` gave a binding fitness of -1.29 natural log.
With `N42P` the binding fitness was -1.49 natural log.

Sample 3 — method: DHFR PCA, deep sequencing; medium: yeast; added: (+)-ABA 0.032 µM; relative to: wild-type fitted maximum; reading: higher = stronger binding
Target: ABI1, truncated, D143A, DHFR fusion (Arabidopsis thaliana)
Notes: methotrexate growth selection, single substitutions
Starting sequence: PYL1, truncated, DHFR fusion (Arabidopsis thaliana); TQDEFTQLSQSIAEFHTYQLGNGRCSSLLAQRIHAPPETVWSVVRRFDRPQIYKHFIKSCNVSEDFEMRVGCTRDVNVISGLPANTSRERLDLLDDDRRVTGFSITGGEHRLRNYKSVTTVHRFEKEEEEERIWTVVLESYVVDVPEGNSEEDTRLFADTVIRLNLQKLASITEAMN; partner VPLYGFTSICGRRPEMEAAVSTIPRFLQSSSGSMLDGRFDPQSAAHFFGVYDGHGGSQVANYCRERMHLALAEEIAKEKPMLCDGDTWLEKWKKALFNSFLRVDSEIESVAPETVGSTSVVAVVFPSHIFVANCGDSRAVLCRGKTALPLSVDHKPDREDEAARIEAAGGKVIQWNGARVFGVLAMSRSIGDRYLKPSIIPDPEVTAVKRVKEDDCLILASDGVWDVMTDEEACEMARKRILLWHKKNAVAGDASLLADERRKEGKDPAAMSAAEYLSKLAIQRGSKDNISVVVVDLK
For `I12N`, “relative binding score” read -8.59%.
For `L138R`, “relative binding score” read 2.4%.
For `E109T`, “relative binding score” read 8.22%.
`D3K`: “relative binding score” 1.86%.
For `D159W`, “relative binding score” read -9.01%.
`A84F`: “relative binding score” 85.1%.
`I133R` — result for “relative binding score”: 8.55%.
`F56T`: “relative binding score” -3.87%.
Under “relative binding score”, `L20T` is recorded as 47%.
For `V44H`, “relative binding score” read -7.97%.
`R90F`: “relative binding score” 4.28%.
`P36H`: “relative binding score” 24.7%.
`V40M` — result for “relative binding score”: 3.16%.
`R163Q` — result for “relative binding score”: 27.1%.
For `R113S`, “relative binding score” read 10.8%.
`A84Y` — result for “relative binding score”: 95.1%.
Under “relative binding score”, `Q31E` is recorded as 1.84%.
Under “relative binding score”, `S87M` is recorded as 36.5%.
`L164R` — result for “relative binding score”: 7.13%.
`K58G`: “relative binding score” 0.419%.
For `S26L`, “relative binding score” read -1.41%.
For `W134M`, “relative binding score” read 36.5%.

Sample 4 — method: universal PBM; molecule type: double-stranded DNA, one strand shown; medium: in vitro; tested at: 600 nM; reading: higher = stronger binding
Target: Sal-like protein 4, full length isoform A (SALL4, Homo sapiens, UniProt Q9UJQ4, residues 1-1053)
Sequence of UniProt Q9UJQ4 (whole entry, looked up): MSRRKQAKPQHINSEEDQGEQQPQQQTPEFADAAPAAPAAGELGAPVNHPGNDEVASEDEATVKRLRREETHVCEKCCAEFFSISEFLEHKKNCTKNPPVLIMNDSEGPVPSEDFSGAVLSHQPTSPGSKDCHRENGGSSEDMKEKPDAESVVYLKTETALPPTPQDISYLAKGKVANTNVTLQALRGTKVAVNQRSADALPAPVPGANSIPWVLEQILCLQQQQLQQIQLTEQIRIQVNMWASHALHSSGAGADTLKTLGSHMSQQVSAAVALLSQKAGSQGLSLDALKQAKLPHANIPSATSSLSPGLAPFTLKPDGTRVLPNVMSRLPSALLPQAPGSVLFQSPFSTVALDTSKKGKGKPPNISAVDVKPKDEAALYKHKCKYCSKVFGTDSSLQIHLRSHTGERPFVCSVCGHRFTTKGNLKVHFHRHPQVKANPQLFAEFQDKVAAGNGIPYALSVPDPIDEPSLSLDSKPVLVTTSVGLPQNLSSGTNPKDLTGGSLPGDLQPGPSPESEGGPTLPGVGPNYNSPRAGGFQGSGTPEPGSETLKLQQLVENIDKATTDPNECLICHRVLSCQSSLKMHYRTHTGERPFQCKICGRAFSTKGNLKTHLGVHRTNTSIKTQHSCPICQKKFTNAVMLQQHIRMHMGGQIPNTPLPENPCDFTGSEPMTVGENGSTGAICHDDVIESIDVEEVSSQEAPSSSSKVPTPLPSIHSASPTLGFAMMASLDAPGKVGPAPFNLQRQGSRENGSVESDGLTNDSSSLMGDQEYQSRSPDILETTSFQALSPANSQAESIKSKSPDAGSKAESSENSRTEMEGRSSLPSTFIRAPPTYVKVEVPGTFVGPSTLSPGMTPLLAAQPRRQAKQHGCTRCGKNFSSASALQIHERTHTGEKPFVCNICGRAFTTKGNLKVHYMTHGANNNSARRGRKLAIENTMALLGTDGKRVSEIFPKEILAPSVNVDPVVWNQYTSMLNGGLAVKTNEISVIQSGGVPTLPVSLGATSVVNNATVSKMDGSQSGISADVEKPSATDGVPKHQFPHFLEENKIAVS
Notes: 8-mer, flanks averaged, mean of replicates
`CTGGTTTC` has an E-score of -0.128.
`GGGTAACC` has an E-score of -0.243.
The E-score of `CCAGAGAC` is reported as -0.22.
For `ACACGTTC`, the E-score was 0.118.
With `CCTACTGA` the E-score was -0.0185.
For `CGAGCCAA`, the E-score was -0.185.
`ATACCGGC` gave an E-score of -0.143.
For `ATTTGTAG`, the E-score was 0.256.
With `GCACAGGC` the E-score was -0.169.
For `CCGCTCAA`, the E-score was -0.101.
The E-score of `GATGTGCA` is reported as 0.0449.
`GACCAAGC` gave an E-score of -0.154.
`GATCATGC` gave an E-score of -0.111.
The E-score of `CCCGGTAA` is reported as -0.248.
`TACATGTA` gave an E-score of 0.242.
The E-score of `GAGCGTAA` is reported as 0.036.
For `AGCAAGCC`, the E-score was -0.235.

Sample 5 — target: CCND2, cyclin fold, Cln2 fusion (human); method: yeast growth competition, sequencing; medium: yeast; notes: weak parent motif; relative to: not given; reading: higher = stronger binding
Starting sequence: RBL1 docking peptide (human); GSAKRRLFGEDPP; partner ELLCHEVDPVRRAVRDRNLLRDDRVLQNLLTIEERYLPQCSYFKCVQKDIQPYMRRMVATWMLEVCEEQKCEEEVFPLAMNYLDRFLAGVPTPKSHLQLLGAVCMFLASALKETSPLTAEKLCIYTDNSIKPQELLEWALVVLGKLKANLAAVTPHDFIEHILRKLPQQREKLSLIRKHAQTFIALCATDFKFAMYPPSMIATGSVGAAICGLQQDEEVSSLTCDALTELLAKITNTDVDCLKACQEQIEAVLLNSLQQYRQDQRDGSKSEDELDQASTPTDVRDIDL
`GSAKRRLLGEDPP [F8L]` — result for “normalised enrichment score”: 0.284.
`GSAKRRLFGEDRP [P12R]` — result for “normalised enrichment score”: 0.316.
`GSAKRRLFGEDPN [P13N]` — result for “normalised enrichment score”: 0.268.
For `GSWKRRLFGEDPP [A3W]`, “normalised enrichment score” read 0.298.
`GSAKRRLFGEDPE [P13E]` — result for “normalised enrichment score”: -0.217.
`GSAKRRQFGEDPP [L7Q]`: “normalised enrichment score” 0.489.
`GSAKRRLFGEDTP [P12T]`: “normalised enrichment score” 0.313.
Under “normalised enrichment score”, `GSAKRRLFGEDPM [P13M]` is recorded as 0.0416.
Under “normalised enrichment score”, `GSAKRRLFGEDPA [P13A]` is recorded as 0.105.
Under “normalised enrichment score”, `NSAKRRLFGEDPP [G1N]` is recorded as -0.12.
`GSAKRRLFGEDPI [P13I]`: “normalised enrichment score” 0.434.
`GSANRRLFGEDPP [K4N]`: “normalised enrichment score” 0.199.
For `GSAKRNLFGEDPP [R6N]`, “normalised enrichment score” read 0.537.
For `GSAKRRLFGELPP [D11L]`, “normalised enrichment score” read 0.411.
Under “normalised enrichment score”, `RSAKRRLFGEDPP [G1R]` is recorded as 0.51.
For `GSAKCRLFGEDPP [R5C]`, “normalised enrichment score” read 0.148.
For `PSAKRRLFGEDPP [G1P]`, “normalised enrichment score” read 0.13.
`GSAKRRLFGEDPR [P13R]`: “normalised enrichment score” 0.445.
`SSAKRRLFGEDPP [G1S]`: “normalised enrichment score” 0.246.
`GSAKRRLFGEDWP [P12W]`: “normalised enrichment score” 0.175.
`GSGKRRLFGEDPP [A3G]`: “normalised enrichment score” 0.243.
Under “normalised enrichment score”, `GSAKRRKFGEDPP [L7K]` is recorded as 0.41.
`GSAKRRLFGEGPP [D11G]`: “normalised enrichment score” 0.347.
For `GSAKRRLKGEDPP [F8K]`, “normalised enrichment score” read 0.547.
`GSAKRRLFGHDPP [E10H]` — result for “normalised enrichment score”: 0.606.
